# Published values of several laboratories.
# Every numbered part comes from another study and shows a few of its results, in no order. Substitutions count along the parent as printed.

# Series 1
# Target: ABI1, truncated, D143A, DHFR fusion (Arabidopsis thaliana)
# Technique: DHFR PCA, deep sequencing
# Matrix: yeast
# Setting: methotrexate growth selection, single substitutions
# Together with: (+)-ABA 2500 µM
# Relative to: wild-type fitted maximum
# Reading: higher = stronger binding
# Parent: PYL1, truncated, DHFR fusion (Arabidopsis thaliana); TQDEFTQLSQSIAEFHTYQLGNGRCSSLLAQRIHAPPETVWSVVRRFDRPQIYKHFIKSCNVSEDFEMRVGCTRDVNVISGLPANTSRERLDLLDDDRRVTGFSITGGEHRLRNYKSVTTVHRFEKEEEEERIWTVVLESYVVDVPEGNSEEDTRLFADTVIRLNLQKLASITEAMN
Change,relative binding score [%]
E152Q,95.9
N22V,101
D153E,98
V70A,96.9
V100H,87.4
W41R,2.83
N85S,99.7
D48S,90.2
W41M,-1.25
S63Q,93.5
Q7T,99.7
R74Q,13.8

# Series 2
# Target: Histone acetyltransferase KAT6A, both winged helices, GST fusion (KAT6A, Homo sapiens, UniProt Q92794, residues 1-181)
# Technique: protein binding microarray
# Form: double-stranded DNA, one strand shown
# Matrix: in vitro
# Concentration: not given
# Setting: 8-mer, flanks averaged, mean of 2 arrays, mostly near background
# Relative to: not given
# Reading: higher = stronger binding
# Target sequence (chain): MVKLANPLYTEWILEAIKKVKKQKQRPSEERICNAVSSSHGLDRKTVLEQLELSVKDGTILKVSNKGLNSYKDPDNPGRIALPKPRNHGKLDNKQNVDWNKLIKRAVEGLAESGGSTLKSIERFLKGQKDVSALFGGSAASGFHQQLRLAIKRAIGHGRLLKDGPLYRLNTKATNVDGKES
Oligonucleotide,E-score
TGGCTTAA,-0.0699
ATCTACAG,0.0204
GCCGTTAA,0.238
ATGGGTCG,-0.0659
GGTTGGGA,-0.186
ATGAGTGC,0.0341
CTCTAAGC,0.025
GTAAACAC,0.0851
ACCAGAGA,-0.18

# Series 3
# Target: Fragile X messenger ribonucleoprotein 1, C-terminal low-complexity region (Fmr1, Mus musculus, UniProt P35922)
# Technique: RNA Bind-n-Seq
# Form: RNA
# Matrix: in vitro
# Concentration: 200 nM
# Setting: whole 134-nt RNA, ends assumed
# Together with: 150 mM KCl
# Relative to: input library
# Reading: higher = stronger binding
# Constant ends, left off below: GGGAGUUCUACAGUCCGACGAUC … UGGAAUUCUCGGGUGUCAAGG
Oligonucleotide,log2 enrichment
GUCCUGUGCUACACAUCGUAUGUACCGAAUCGGGGUUUGGGGUUUUUUUGGGGAGGGGAAAGUAUUAUGUUACGCCGUUCGGAUCUGCAC,0.767
CCUGUGCUACACAUCGUAUGUACCGAAUCGGGGAAAAAAAGGAAAAAAAGGAAAAAAAGGAAAGUAUUAUGUUACGCCGUUCGGAUCUGC,-0.43
CACAGACAACACGCACCCACACAGACACAGAGGGAAGGGGUUGGGAUGGGGACAGGGUGCACAGCAGGGCGGGGUAGGACCCCAUCCCCU,1.35
CCUGUGCUACACAUCGUAUGUACCGAAUCGGGAAAAAAAGGGAAAAAAAGGAAAAAAAGGAAAGUAUUAUGUUACGCCGUUCGGAUCUGC,-0.442
CCUCAAGUCCUGUGCUACACAUCGUAUGUACCGAAUCGGAAAAAGGUGGUGGAAAGUAUUAUGUUACGCCGUUCGGAUCUGCACUUCCAG,0.261
CCUCAAGUCCUGUGCUACACAUCGUAUGUACCGAAUCGGCCGGGCCGGGCCGGAAAGUAUUAUGUUACGCCGUUCGGAUCUGCACUUCCA,-0.226
UGGGAGGUGGAUUUUGUUUAUUUUUUUAGCUCAUUUCCAGGGGUGGGAACUUUUUUUUAAUAUGUGUCAUGAAUAAAGUUGUUUUUGAAA,0.262
AAGUCCUGUGCUACACAUCGUAUGUACCGAAUCGGUGGUUUUUUUGGAAAAAAAGGAAAGUAUUAUGUUACGCCGUUCGGAUCUGCACUU,-0.864
CCUGUGCUACACAUCGUAUGUACCGAAUCGGGAAAAAAGGGGAAAAAAGGGAAAAAAGGGAAAGUAUUAUGUUACGCCGUUCGGAUCUGC,-0.469
AAGUCCUGUGCUACACAUCGUAUGUACCGAAUCGGUUUUGGGUUUUGGGUUUUGGGGAAAGUAUUAUGUUACGCCGUUCGGAUCUGCACU,-0.183

# Series 4
# Target: Phosphate system positive regulatory protein PHO4, full length, GST-tagged (PHO4, Saccharomyces cerevisiae, UniProt P07270, residues 1-312)
# Technique: competition protein-binding microarray
# Form: double-stranded DNA, one strand shown
# Matrix: in vitro
# Concentration: 2 µM
# Setting: whole 60-bp probe, lowest competitor level
# Together with: Cbf1 competitor, 0.05 µM
# Reading: higher = stronger binding
# Constant ends, left off below: … GTCTTGATTCGCTTGACGCTGCTG
# Target sequence (chain): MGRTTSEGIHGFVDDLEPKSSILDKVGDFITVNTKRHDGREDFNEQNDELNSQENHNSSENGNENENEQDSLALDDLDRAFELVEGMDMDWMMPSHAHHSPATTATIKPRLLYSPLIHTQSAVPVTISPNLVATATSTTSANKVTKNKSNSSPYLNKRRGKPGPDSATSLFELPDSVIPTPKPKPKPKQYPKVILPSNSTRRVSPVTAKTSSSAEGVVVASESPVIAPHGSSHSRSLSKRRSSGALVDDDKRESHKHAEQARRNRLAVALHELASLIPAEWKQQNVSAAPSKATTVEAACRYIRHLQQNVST
Oligonucleotide,fluorescence intensity
CATACCCAACCTTGGGCCGTGGGTGAAGATATTTGT,5430 a.u.
CAAGGTTTTCTTTGCCACGCTCAAGCATTCATCGTT,6530 a.u.
CTTTCCCGATCTTGTGGTGTGGGTGTAGCACATTTG,5970 a.u.
CTAACGAAGGTTTTACACGTGTTTTACAAGCCAAGT,17500 a.u.
CGGGGTTAAGTTTGAAATGTGGGTGGCTTGCAGCAG,5800 a.u.
ATTGTTCCACCCGACCACGTGCTTTTTCATAAGGGT,20500 a.u.
CATACCCAACCTTGTCACAGGACTTAAGATATTTGT,3620 a.u.
TTTCCAAAACTCCAACACGTGATGGATAAGATAGTC,15300 a.u.
GTCTTGTCTCATTGCGAGGTGGGTGTCCCCACTTCA,4530 a.u.
CGACATCTATCGCCATTCGTGCGGACATTTCTCGAA,5950 a.u.
GGTAGCGATTTCCATCACGTGACTCGTTTTTATTCC,14100 a.u.
CTTCTGTAAATTTGTAACGTGGGTGGACGCGCCCCG,10600 a.u.
CTTCTGTAAATTTGTCACGCCACTTGACGCGCCCCG,5070 a.u.
CGTATGGAGTTTTCAAACGTGGAACAAAGAACCCAA,7920 a.u.
CATGGAAGTTACCATCACCTGCATTACCAACAATGG,5440 a.u.
CGCCATTGTATGAATCTCGTGCCAGTCCCTTTTTAA,9280 a.u.
GGCAAGGGGGGGGATGACACGGGCGGCTCTGGTTGG,7910 a.u.

# Series 5
# Target: RNA binding protein fox-1 homolog 2, RRM domain, GST-SBP tag (RBFOX2, Homo sapiens, UniProt O43251-10, residues 100-194)
# Technique: RNA Bind-n-Seq
# Form: RNA
# Matrix: in vitro
# Concentration: 365 nM
# Setting: natural RNA segment, single round, ends assumed
# Relative to: no-protein control
# Reading: higher = stronger binding
# Constant ends, left off below: GGGAGUUCUACAGUCCGACGAUC … UGGAAUUCUCGGGUGCCAA
# Residues (chain): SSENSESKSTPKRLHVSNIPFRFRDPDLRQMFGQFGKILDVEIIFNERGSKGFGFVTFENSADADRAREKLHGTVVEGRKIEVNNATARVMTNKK
Oligonucleotide,RBNS enrichment (R)
AGCUCUUUUGGCCUGGGUACAGCAGAAAACUAGCAGUUUUCCUACUUGGCGCAAGUGACUUGUGCCUCCUUGUCUGUCCUUUGUCAGCACAGGUGCAGGCAAACCCUUCC,0.27
CAAAGAGAAGCAAUACACAGUAUGUCUGCUUUAGCCUUCUUUUAUUUAUCUCAUCUGCAGAUGUUGAGAAUGUAUGCAUUAUGUAAAAUGCUUGUUUUUUUAUCCCUGUU,0.509
AGGUCCUCAUCUCCGUCUUGCAGGUGUUCUGAACUCUCCUUUGGCUAGUCUCUGAUUUUUGAGUCUGGCGGAGGCCUCUUGACCAUGCUGCCCAUGCUGUCUACUGUGCC,0.29
UCCACCUCAGUGGCUUAGCCUUUGGGACAGUGGAUACUGCAACAGCCAAGAACUCUUGGUUAUCCGCACAAGCUGCUGGUAGACUACAUUAGCCCUCUGGUUUUCCAGCU,0.212
UACCUUUCCCAGAUUAGGGGGAUGGUAUGUGGGGAGCAGAUAGCGGAAAUGCUUAGAAAGAUAAGGGGGACCACCCACAGCUGGUCGUGAGAACAGGGAGACAGUGUGUG,1.41
UGAACUCCAGUCUUCAGCUCGAAGUUGCCUCUAGGGUUCCUCCUGGUCACCCCCGGGCCCAGCCUGGCUGGCGAGAAACAAACACGGUUUGAGAGGCUGUGGCACACUGA,0.372
CUUUGUAGACAUUGGUAUUUGUUUUACUUAGCAAUAAGAAUGGUGAAAUUCAAAUUCUCGUUUAGAAGUGAAAGCUGUCAGGUUGAUAGCAAGCAUGCACAUCAAAUUCA,19.7
UUUCACACUUCAGCAAACAUAAGGAGGACAGCUUUGUUAAUAGCUAAAAAGUACAAAUUAAAAGAUUUGAGAAAGUGGUAUUUUUUUCUGAAAGCAAACAAUGGCUUGUA,0.805
CUGAGGUCAUAUUUCAGACACCCACCUGACCCUGCCACUCACAGCCGUCGUUUGUUUUCCAUGGAUGCAGAAGUCCAGGUUUCACCAUCUAUUUUCUGUUUUACUCGAUU,0.488
GCACUGAUUGUGGAAGAUCUGGCAACAUGAAAGAUUGCCAGCCUUUGUGUAUAGGACUGCGUUCGUAGGCAUCCCCCCAGUUAUUCUGAAGGUCCUGUGCUGAUGGAGGC,0.471
GCUCUGUCAAUUAGAGGUGGAAUGGAGACCAACCUCCUUCCUGCCUCCUGGCUGUUCUUGAAACAGCUUAGAGCGAUUCUAUGAAAAUGUAAUAAAAAAUAAAAAUAAAA,0.441

# Series 6
# Target: Interferon regulatory factor 5, full length, phosphomimetic (IRF5, Homo sapiens, UniProt Q13568-2, residues 1-514, K96S/S451D/S453D/S456D/S462D)
# Technique: protein-binding microarray
# Form: double-stranded DNA, one strand shown
# Matrix: in vitro
# Concentration: 250 nM
# Setting: 60-bp whole probe
# Together with: salmon DNA 0.4 mg/ml
# Relative to: random background probes
# Reading: higher = stronger binding
# Constant ends, left off below: GCCTAGCAC … GTCTTGATTCGCTTGACGCTGCTG
Oligonucleotide,log fluorescence
TTAGGTATCCTTCTCCTTAAGTGCTAG,0.428 z-score
GACGATTTCAGCATCGAGACGTGCTAG,0.568 z-score
GACGATCTCAGTCTCGAGCCGTGCTAG,-0.29 z-score
GACGAACTTGGGTATCGAGACGTGCTA,0.463 z-score
TATGGTTTTTTTTTAATTGAGTGCTAG,0.314 z-score
GACGGTCTCCTTTTCCTGACGTGCTAG,-0.0576 z-score
GACGGTTTCGGGTATCCGGACGTGCTA,7.94 z-score
TTAGATCTCAGTATGGATTAGTGCTAG,-0.00805 z-score
TCAATTTCCACTTTCTTACTGTGCTAG,2.22 z-score

# Excerpt of the above (series 1):
Change,relative binding score [%]
V70A,96.9
V100H,87.4
W41R,2.83
N85S,99.7
D48S,90.2
W41M,-1.25
S63Q,93.5
